Measured values collected from several papers.
Protocols differ between the studies behind these lines. ± marks the error that the study gave.
AR: Androgen receptor (AR, Homo sapiens, UniProt P10275)
Sequence of UniProt P10275 (whole entry, looked up): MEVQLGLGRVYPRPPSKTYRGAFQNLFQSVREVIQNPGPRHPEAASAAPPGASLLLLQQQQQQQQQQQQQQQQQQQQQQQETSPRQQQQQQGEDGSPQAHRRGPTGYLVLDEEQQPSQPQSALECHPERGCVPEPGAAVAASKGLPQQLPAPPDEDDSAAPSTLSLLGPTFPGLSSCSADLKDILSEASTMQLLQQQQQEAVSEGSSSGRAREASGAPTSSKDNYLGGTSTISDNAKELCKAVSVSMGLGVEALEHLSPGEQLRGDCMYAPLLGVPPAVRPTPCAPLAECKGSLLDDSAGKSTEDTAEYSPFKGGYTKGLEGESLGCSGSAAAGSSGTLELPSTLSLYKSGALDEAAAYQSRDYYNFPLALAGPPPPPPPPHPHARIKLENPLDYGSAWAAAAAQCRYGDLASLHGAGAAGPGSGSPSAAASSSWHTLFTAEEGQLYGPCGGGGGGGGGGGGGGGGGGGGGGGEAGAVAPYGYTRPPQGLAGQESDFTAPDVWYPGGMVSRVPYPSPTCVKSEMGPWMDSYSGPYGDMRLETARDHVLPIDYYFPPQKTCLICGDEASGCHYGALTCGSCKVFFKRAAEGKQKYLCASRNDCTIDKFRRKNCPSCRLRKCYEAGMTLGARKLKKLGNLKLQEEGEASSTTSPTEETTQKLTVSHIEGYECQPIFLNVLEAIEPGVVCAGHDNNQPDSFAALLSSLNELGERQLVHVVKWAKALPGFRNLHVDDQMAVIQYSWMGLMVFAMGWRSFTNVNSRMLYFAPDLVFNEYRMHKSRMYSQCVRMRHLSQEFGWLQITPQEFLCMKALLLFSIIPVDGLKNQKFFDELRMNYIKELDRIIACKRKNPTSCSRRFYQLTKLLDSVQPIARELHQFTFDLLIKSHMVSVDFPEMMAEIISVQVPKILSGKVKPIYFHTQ
CPL: CPL (Toxoplasma gondii, UniProt Q6DMN0)
CES2: Cocaine esterase (CES2, Homo sapiens, UniProt O00748)
Sequence of UniProt O00748 (whole entry, looked up): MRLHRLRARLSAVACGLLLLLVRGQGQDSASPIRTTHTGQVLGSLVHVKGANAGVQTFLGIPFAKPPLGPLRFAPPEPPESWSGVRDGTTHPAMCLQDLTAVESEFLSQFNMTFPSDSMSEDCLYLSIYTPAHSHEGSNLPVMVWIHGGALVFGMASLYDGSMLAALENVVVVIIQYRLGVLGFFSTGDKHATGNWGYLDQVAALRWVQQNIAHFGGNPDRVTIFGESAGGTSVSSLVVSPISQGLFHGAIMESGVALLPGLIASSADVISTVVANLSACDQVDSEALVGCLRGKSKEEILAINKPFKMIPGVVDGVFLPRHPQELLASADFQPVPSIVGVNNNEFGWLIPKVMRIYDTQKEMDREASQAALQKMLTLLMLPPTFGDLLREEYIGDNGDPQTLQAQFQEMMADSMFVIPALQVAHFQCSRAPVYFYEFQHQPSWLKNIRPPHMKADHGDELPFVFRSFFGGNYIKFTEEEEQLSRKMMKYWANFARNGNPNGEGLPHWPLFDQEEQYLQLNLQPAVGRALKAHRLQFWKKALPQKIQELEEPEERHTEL
Sequence of UniProt Q9BY41 (whole entry, looked up): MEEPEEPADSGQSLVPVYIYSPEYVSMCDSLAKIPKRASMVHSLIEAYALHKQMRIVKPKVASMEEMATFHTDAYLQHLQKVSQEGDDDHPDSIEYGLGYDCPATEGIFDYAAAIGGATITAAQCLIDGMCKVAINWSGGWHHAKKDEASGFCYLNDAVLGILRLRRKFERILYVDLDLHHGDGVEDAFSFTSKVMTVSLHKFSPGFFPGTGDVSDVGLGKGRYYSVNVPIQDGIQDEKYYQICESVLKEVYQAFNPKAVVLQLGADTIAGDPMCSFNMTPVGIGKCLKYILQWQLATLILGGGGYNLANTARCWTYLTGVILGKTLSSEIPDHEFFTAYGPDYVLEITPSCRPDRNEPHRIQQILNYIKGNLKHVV
Sequence of UniProt P05106 (whole entry, looked up): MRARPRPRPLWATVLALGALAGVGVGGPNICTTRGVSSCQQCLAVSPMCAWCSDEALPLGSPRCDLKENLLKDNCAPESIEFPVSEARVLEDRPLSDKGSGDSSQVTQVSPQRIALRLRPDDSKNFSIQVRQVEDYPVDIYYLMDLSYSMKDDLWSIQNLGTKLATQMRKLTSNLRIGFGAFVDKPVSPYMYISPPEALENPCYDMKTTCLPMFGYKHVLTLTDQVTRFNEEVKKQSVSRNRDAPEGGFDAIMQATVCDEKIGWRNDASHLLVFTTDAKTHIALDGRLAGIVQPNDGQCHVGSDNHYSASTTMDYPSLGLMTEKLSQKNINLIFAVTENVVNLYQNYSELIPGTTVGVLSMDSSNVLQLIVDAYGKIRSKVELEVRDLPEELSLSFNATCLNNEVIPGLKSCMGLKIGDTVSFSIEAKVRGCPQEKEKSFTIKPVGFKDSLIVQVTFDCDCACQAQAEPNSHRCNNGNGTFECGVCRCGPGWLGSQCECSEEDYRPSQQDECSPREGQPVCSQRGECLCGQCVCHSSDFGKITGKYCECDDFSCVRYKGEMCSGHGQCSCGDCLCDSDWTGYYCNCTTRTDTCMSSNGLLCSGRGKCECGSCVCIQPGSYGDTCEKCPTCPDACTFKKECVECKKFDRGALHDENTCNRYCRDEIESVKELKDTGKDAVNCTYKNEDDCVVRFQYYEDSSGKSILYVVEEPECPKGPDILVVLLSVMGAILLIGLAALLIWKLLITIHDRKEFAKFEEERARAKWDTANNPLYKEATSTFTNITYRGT
Sequence of UniProt O15379 (whole entry, looked up): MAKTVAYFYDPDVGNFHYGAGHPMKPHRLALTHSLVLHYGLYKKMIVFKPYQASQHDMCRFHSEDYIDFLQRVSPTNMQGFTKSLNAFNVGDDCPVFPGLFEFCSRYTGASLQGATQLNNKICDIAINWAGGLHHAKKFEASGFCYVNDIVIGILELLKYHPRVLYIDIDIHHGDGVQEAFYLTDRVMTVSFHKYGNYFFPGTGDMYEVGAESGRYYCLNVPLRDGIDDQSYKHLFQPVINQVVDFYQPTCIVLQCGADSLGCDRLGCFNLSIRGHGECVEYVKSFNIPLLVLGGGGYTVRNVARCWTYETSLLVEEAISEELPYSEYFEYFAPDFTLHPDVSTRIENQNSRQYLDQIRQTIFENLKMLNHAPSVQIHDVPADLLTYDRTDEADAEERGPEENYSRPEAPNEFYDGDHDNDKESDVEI
Sequence of UniProt Q96P56 (whole entry, looked up): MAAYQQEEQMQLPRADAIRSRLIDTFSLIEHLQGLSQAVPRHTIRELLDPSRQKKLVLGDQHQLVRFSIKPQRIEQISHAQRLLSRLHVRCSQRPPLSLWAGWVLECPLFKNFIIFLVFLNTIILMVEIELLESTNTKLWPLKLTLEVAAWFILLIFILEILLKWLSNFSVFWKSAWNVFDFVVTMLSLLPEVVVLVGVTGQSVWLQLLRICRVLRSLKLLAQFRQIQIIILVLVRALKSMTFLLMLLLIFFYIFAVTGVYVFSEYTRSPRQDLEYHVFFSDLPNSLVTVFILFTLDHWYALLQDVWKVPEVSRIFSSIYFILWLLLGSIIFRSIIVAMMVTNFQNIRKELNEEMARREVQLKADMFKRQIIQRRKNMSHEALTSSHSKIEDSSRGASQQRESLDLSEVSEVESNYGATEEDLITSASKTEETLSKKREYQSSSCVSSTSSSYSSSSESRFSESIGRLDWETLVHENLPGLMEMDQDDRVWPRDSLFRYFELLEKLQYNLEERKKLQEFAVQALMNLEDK
Sequence of UniProt O75475 (whole entry, looked up): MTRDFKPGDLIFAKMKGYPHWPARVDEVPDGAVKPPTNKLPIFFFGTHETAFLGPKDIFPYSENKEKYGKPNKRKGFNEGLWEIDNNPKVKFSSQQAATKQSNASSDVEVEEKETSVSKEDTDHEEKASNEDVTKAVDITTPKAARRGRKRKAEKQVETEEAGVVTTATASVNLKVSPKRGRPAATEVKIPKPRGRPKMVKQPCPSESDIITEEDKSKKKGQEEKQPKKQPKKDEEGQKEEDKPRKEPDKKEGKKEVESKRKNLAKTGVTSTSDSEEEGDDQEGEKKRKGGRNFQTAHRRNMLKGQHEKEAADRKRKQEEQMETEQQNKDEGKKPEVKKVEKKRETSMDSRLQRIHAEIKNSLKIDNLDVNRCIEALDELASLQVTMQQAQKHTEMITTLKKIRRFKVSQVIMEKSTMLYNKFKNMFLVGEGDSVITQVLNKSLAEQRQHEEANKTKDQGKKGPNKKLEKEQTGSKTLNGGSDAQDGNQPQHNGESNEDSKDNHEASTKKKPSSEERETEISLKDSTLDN
Sequence of UniProt P37268 (whole entry, looked up): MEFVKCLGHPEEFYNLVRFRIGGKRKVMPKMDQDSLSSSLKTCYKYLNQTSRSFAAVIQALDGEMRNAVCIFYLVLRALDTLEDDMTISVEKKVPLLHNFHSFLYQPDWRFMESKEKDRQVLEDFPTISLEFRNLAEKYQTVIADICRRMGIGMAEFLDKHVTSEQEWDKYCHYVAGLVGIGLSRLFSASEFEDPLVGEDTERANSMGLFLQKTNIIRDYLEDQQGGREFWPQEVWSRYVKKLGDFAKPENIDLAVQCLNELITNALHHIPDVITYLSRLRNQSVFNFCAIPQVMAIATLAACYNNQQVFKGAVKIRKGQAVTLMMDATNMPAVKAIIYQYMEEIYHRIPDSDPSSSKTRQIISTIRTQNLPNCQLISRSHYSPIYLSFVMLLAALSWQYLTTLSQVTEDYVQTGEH
Sequence of UniProt P32247 (whole entry, looked up): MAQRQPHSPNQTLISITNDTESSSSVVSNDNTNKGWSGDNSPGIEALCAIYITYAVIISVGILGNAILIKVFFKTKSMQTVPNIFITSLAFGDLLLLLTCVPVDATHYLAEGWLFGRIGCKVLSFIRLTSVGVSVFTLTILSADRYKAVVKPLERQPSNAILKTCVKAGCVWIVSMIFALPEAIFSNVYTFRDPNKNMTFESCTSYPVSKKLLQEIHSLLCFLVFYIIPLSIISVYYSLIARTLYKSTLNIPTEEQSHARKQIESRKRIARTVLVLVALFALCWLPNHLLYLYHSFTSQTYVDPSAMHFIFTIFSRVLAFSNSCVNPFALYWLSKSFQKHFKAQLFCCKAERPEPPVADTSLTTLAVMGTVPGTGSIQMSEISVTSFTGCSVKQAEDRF

COC(=O)C=CCCC(NC(=O)c1ccncc1C(=O)O)C(=O)NC(C(=O)N1CC(=O)CC1C(=O)NC(C(=O)NC(C(N)=O)C1CCCCC1)C1CCCCC1)C(C)(C)C (stereo not shown) — IC50 (Coagulation factor XIII A chain, with factor XIII B (F13A1, Homo sapiens, UniProt P00488); transamidase activity, inhibitor; with: dansylcadaverine, N,N-dimethylcasein): 0.004 ± 0.0004 µM
CC1(C(=O)O)CCCC2(C)C1CCC1(C)c3cocc3CCC12 (stereo not shown) — IC50 (AR; reporter gene, antagonist, luciferase): > 30 µM
COc1ccc(C(=O)CCl)cc1 — IC50 (Protein FosB, ΔFosB isoform (Fosb, Mus musculus, UniProt P13346); ΔFOSB homodimer DNA binding, fluorescence polarization; 15 min, with: TMR-cdk5 oligonucleotide): > 200 µM
CN(C)c1ccc(C(=O)NCc2ccc(CNC(=O)CS)cc2)cc1 — IC50 (HDAC6 (Homo sapiens, UniProt Q9UBN7); enzyme activity, inhibitor): 1.54 µM
CC(C)CCN(CCCc1ccccc1)c1nc(C#N)nc(N2CCOCC2)n1 — IC50 (CPL; enzyme activity, inhibitor, Z-L-R-AMC hydrolysis fluorescence): 0.23 µM
CC(C)C[C@@H]1NC(=O)[C@H](CCCCN)NC(=O)[C@H](CC(C)C)NC(=O)[C@@](C)(NC(=O)[C@H](Cc2ccccc2)NC(=O)[C@H](Cc2ccc(O)cc2)NC(=O)[C@H](C)NC(=O)[C@@H](NC(=O)c2ccc3c(c2)C(=O)OC32c3ccc(O)cc3Oc3cc(O)ccc32)[C@@H](C)O)CCCC=CCCC[C@@](C)(C(=O)NCC(=O)N[C@@H](CCCNC(=N)N)C(=O)N[C@@H](Cc2c[nH]c3ccccc23)C(N)=O)NC1=O — IC50 (PC4 and SFRS1-interacting protein, with HIV integrase (Homo sapiens, UniProt O75475); LEDGF/p75-integrase interaction, inhibitor): 25 µM
CCCCCCc1ccc(Nc2ccccc2C(=O)O)cc1 — IC50 (AR; reporter gene, antagonist, MMTV-Luc reporter; MDA-kb2; 20 h, with: 0.2 nM DHT (EC50)): 7.2 ± 3.9 µM
Fc1ncc(C2CC3CCC2N3)cc1-c1ccncc1 (racemic) — IC50 (Chrna7 (Rattus norvegicus, UniProt Q05941); ion current, two-electrode voltage clamp; oocytes): 75 µM
CC(C)C[C@@H]1NC(=O)[C@H](C(C)C)NC(=O)[C@H](C)NC(=O)[C@H](Cc2ccc(O)cc2)NC(=O)[C@H](CCC(N)=O)NC(=O)[C@H](CC(C)C)NC(=O)[C@@H](Cc2ccc(O)cc2)NC(=O)CSC[C@@H](C(N)=O)NC(=O)[C@H](CCC(=O)O)NC(=O)[C@H](CCCNC(=N)N)NC(=O)[C@H](CCCNC(=N)N)NC(=O)[C@H](CCCCN)NC(=O)[C@H](Cc2c[nH]cn2)NC(=O)[C@H](CCCNC(=N)N)NC1=O — IC50 (Cathepsin E (CTSE, Homo sapiens, UniProt P14091); enzyme activity, inhibitor): > 10 µM
Cc1cc2c(C(=O)Cc3ccccc3)c(O)c(O)cc2c(O)c1-c1c(C)cc2c(C(=O)Cc3ccccc3)c(O)c(O)cc2c1O — IC50 (Bcl-2-like protein 1, transmembrane domain deleted (BCL2L1, Homo sapiens, UniProt Q07817); binding, fluorescence polarization; with: FITC-Bak BH3 peptide): 0.19 µM
O=C(N[C@@H](CC1CCCCC1)C(=O)N[C@@H](C[C@H]1CCNC1=O)C(=O)C(=O)NC1CC1)OCc1cccc(Cl)c1 — IC50 (Genome polyprotein, 3C protease (Human enterovirus D68, UniProt Q68T42); 3C protease activity, inhibitor, FRET): 0.022 ± 0.05 µM
N#Cc1nc(N2CCOCC2)nc(N(Cc2ccccc2[N+](=O)[O-])CC2CCCNC2)n1 (stereo not shown) — IC50 (CPL; enzyme activity, inhibitor, Z-L-R-AMC hydrolysis fluorescence): 3.97 µM
CC[C@@H]1C(=O)N(C)c2cnc(Nc3ccc(C(=O)NCCCC[C@H](NC(=O)[C@@H](NC(=O)[C@H](CO)NC(=O)[C@H](Cc4cncn4CCCCCCCCc4ccccc4)NC(=O)[C@H](CC(C)C)NC(=O)[C@@H]4CCCN4C(C)=O)[C@@H](C)OP(=O)(O)O)C(N)=O)cc3OC)nc2N1C1CCCC1 — IC50 (CAMKK2 (Homo sapiens, UniProt Q96RR4); enzyme activity, inhibitor): 0.35 µM
O=C(O)c1ccccc1Nc1ccc(Oc2ccccc2)cc1 — IC50 (AR; reporter gene, antagonist, MMTV-Luc reporter; MDA-kb2; 20 h, with: 8 nM DHT (EC90)): > 100 µM
COc1ccc(N=Nc2cccc(NC(=O)CCCCCCC(=O)NO)c2)cc1 — IC50 (HDAC3 (Homo sapiens, UniProt O15379); enzyme activity, inhibitor; cis isomer, irradiated): 0.067 ± 0.023 µM
CC(C)C[C@@H]1NC(=O)[C@H](CCCCN)NC(=O)[C@H](CC(C)C)NC(=O)[C@@](C)(NC(=O)[C@H](Cc2ccccc2)NC(=O)[C@H](Cc2ccc(O)cc2)NC(=O)[C@H](C)NC(=O)[C@@H](N)[C@@H](C)O)CCC=CCC[C@@](C)(C(=O)NCC(=O)N[C@@H](CCCNC(=N)N)C(=O)N[C@@H](Cc2c[nH]c3ccccc23)C(N)=O)NC1=O — IC50 (Gag-Pol polyprotein, integrase (gag-pol, Human immunodeficiency virus type 1 group M subtype B, UniProt P04585); integrase strand transfer, inhibitor): 83 µM
N#CC(C#N)C(c1cccc(Cl)c1)c1c[nH]c2ccccc12 (stereo not shown) — IC50 (CES2; enzyme activity, inhibitor; human liver microsomes; pH 7.4, 37 °C, with: fluorescein diacetate): 3.29 ± 0.28 µM
N=C(N)NCCC[C@H](N)C(=O)NCC(=O)NCC(=O)N[C@@H](Cc1ccccc1)C(=O)O — IC50 (Integrin alpha-IIb/beta-3, ADP-activated (Homo sapiens, UniProt P05106+P08514); fibrinogen binding, inhibitor; human platelets): > 1000 µM
CCN(C)C(=O)Oc1ccccc1/C=C1\Cc2cc(OC)c(OC)cc2C1=O — IC50 (CES2; enzyme activity, inhibitor; 3 min preincubation, with: fluorescein diacetate): 0.00367 ± 0.00023 µM
C/C(=N\OCCCN1CCCCC1)c1ccc(C(F)(F)F)cc1 — IC50 (CHRM2 (Homo sapiens, UniProt P08172); inositol phosphate, antagonist): 1.06 µM
N#Cc1nc(N2CCOCC2)nc(N(Cc2ccc(F)cc2)CC2CCCOC2)n1 (stereo not shown) — IC50 (CPL; enzyme activity, inhibitor, Z-L-R-AMC hydrolysis fluorescence): 0.049 µM
NC(=O)c1cncc(N2CCN(Cc3ccc(Cl)nc3)CC2)n1 — IC50 (CatSper channel complex (Homo sapiens, UniProt Q7RTX7+Q86XQ3+Q8NEC5+Q96P56); calcium influx, inhibitor, FLIPR; human sperm; with: 3 µM progesterone): > 100 µM
Cc1ccc(C(=O)Nc2cccc3cnccc23)cc1S(=O)(=O)N1CCCCC1 — IC50 (Trpv1 (Rattus norvegicus, UniProt O35433); ion current, antagonist, two-electrode voltage clamp; oocytes): 36.1 µM
CN[C@@H]1[C@H](O)[C@H](NC)[C@H]2O[C@]3(O)[C@H](O[C@@H]2[C@H]1O)O[C@H](C)C[C@]3(O)CNCc1ccc(OC(F)(F)F)cc1 — IC50 (Small ribosomal subunit protein uS5, 70S ribosome (rpsE, Mycolicibacterium smegmatis, UniProt A0QSG6); translation, inhibitor, in vitro translation, luciferase; Mycobacterium smegmatis ribosomes): 20.1 µg/mL
CSCC[C@H](NC(=O)[C@H](Cc1ccccc1)NC(=O)[C@H](Cc1c[nH]cn1)NC(=O)CNC(=O)[C@@H](NC(=O)[C@H](C)NC(=O)[C@H](Cc1c[nH]c2ccccc12)NC(=O)[C@H](CCC(N)=O)NC(=O)[C@@H]1CCCN1C(=O)CNC(=O)CNC(=O)CNC(=O)[C@@H]1CCC(=O)N1)C(C)C)C(N)=O — IC50 (BRS3 (Homo sapiens, UniProt P32247); human GRPR activity, cell-based): > 3 µM
N=C(N)NN=C1C=C2CC(=NNC(=N)N)C=C2C1 — IC50 (Mycosin-1 (Mycolicibacterium thermoresistibile, UniProt G7CDQ2); enzyme activity, inhibitor): 48 µM
CC[C@@H]1NC(=O)[C@H](CCCNC(=N)N)NC(=O)[C@H](NC(=O)C(C)C)CCNC(=O)c2cc(F)c(c(F)c2)N=Nc2c(F)cc(cc2F)C(=O)NCCNC(=O)[C@@H](Cc2ccccc2)NC1=O — IC50 (WD repeat-containing protein 5, MLL1 complex (WDR5, Homo sapiens, UniProt P61964); histone methyltransferase activity; trans PSS at 405 nm): 9.2 ± 3.04 µM
CC(C)C[C@@H]1NC(=O)[C@@H](CCCNC(=N)N)NC(=O)[C@H](CCCCN)NC(=O)[C@H](CC(=O)O)NC(=O)[C@H](CCCCN)NC(=O)[C@H](CO)NC1=O — IC50 (Disintegrin and metalloproteinase domain-containing protein 8 (Homo sapiens, UniProt P78325); enzyme activity, inhibitor, fluorescence): 1.98 µM
C[C@@H]1CCN(c2nc3cc(Cl)ccc3o2)CCN1S(=O)(=O)c1ccccc1 — IC50 (HCRTR2 (Homo sapiens, UniProt O43614); calcium signal, antagonist, fluorescence): 1.09 µM
Nc1ncnc2c1ncn2[C@@H]1O[C@H](CSCCNC(=O)NCCc2ccccc2)[C@@H](O)[C@H]1O — IC50 (PRMT3 (Homo sapiens, UniProt O60678); enzyme activity, inhibitor, radiometric): > 50 µM
C=CCCNC(=O)[C@H](CO)NC(=O)[C@H](CC(C)C)NC(=O)CN(CC=C)C(=O)[C@H](CCC(N)=O)NC(=O)[C@H](Cc1ccc(OP(=O)(O)O)cc1)NC(C)=O — IC50 (SHC-transforming protein 1, SH2 (Homo sapiens, UniProt P29353); ligand displacement, FP): 8 µM
C[C@@H]1NC(=O)[C@H](C)NC(=O)[C@@H]2CSSC[C@H](NC(=O)[C@H](CO)NC(=O)CNC1=O)C(=O)N[C@@H](CCCCN)C(=O)N[C@H]1CSSC[C@H](NC(=O)[C@H](CCCCN)NC(=O)[C@@H]3CSSC[C@H](NC(=O)[C@H](CO)NC1=O)C(=O)N[C@@H](Cc1ccc(O)cc1)C(=O)NCC(=O)N[C@@H](CC(=O)O)C(=O)N[C@@H](CC(=O)O)C(=O)N3)C(=O)N[C@@H](CCC(=O)O)C(=O)N2 — IC50 (Lymphocyte function-associated antigen 3, with CD2 (CD58, Homo sapiens, UniProt P19256); human cells): > 50 µM
N=C(N)c1ccc(C(=O)N[C@@H](Cc2ccc(O)cc2)C(=O)N2CCC(OCC(=O)O)CC2)cc1 — IC50 (TMPRSS2 (Homo sapiens, UniProt O15393); enzyme activity, inhibitor, fluorescence): 1.39 µM
COC(=O)C1CN1S(=O)(=O)c1c(C)cc(C)cc1C (stereo not shown) — IC50 (P4HB (Homo sapiens, UniProt P07237); enzyme activity, inhibitor, absorbance; pH 7.6): 6.8 µM
O=C(CCCCCCC(=O)Nc1ccccc1N=Nc1ccccc1)NO — IC50 (HDAC8 (Homo sapiens, UniProt Q9BY41); enzyme activity, inhibitor; cis isomer, irradiated): 0.32 ± 0.101 µM
COCCNC(P(=O)(O)O)P(=O)(O)O — IC50 (Squalene synthase (Homo sapiens, UniProt P37268); enzyme activity, inhibitor): 2.42 µM
CC(C)C[C@@H]1NC(=O)[C@H](Cc2ccccc2)NC(=O)[C@@H](N)CSSC[C@@H](C(N)=O)NC(=O)[C@H](C)NC(=O)[C@H](CC(N)=O)NC(=O)[C@H](CO)NC(=O)[C@H](C(C)C)NC(=O)[C@H](CC(N)=O)NC1=O — IC50 (WD repeat-containing protein 5, WBM site (WDR5, Homo sapiens, UniProt P61964); binding, inhibitor): > 100 µM
